Measurements gathered from unrelated publications.
Each numbered part is a random draw from the data of one study; scales do not carry over between parts. Several values in a cell are separate wells, animals, samples, runs or records.

Sample 1 — method: protein binding microarray; molecule type: double-stranded DNA, one strand shown; medium: in vitro; tested at: not given; reference: not given; direction: higher = stronger binding
Target: Histone acetyltransferase KAT6A, both winged helices, GST fusion (KAT6A, Homo sapiens, UniProt Q92794, residues 1-181)
Setting: 8-mer, flanks averaged, mean of 2 arrays, mostly near background
Residues (chain): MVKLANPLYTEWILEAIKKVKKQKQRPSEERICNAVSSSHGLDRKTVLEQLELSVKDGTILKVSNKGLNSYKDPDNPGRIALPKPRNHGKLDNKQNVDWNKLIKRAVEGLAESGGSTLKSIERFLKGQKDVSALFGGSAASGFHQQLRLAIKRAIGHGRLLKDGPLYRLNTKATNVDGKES
| Sequence | E-score |
| --- | --- |
| AGCTATCA | 0.0764 |
| AGCGTGGA | 0.138 |
| ACAGGAGT | -0.154 |
| CGCTACAA | 0.0903 |
| CTGCGAGC | -0.0162 |
| CTATTACA | -0.0534 |
| AACAATGA | -0.0311 |

Sample 2 — method: universal PBM; molecule type: double-stranded DNA, one strand shown; medium: in vitro; tested at: 600 nM; direction: higher = stronger binding
Target: Sal-like protein 4, full length isoform A (SALL4, Homo sapiens, UniProt Q9UJQ4, residues 1-1053)
UniProt Q9UJQ4, sequence (whole entry, looked up): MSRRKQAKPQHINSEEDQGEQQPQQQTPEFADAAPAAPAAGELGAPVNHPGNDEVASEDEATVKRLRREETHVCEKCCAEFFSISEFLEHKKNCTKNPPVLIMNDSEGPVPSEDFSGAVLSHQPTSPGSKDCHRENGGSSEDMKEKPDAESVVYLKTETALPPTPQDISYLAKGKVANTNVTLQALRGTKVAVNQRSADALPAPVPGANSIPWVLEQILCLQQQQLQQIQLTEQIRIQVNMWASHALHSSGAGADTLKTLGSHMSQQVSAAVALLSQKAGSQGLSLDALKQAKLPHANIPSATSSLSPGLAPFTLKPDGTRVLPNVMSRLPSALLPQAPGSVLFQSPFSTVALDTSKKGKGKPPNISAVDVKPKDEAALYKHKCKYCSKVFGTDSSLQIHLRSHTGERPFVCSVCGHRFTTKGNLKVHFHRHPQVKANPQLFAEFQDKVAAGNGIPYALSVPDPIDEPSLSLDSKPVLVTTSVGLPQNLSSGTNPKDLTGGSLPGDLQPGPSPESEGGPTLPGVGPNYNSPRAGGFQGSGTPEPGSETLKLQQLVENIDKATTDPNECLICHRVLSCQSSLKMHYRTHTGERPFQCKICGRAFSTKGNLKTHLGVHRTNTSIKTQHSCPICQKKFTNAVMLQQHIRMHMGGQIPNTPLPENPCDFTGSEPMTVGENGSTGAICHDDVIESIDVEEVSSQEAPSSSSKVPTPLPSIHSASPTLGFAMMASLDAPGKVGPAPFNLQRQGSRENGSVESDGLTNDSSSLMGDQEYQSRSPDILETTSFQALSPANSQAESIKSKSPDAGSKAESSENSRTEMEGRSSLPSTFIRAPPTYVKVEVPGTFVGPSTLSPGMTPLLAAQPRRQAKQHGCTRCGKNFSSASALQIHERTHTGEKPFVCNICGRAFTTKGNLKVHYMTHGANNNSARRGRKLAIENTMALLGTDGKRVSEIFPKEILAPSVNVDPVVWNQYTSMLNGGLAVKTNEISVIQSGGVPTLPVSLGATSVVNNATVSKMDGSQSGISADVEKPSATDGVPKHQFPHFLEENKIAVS
Setting: 8-mer, flanks averaged, mean of replicates
| Sequence | E-score |
| --- | --- |
| AGTTCTAC | 0.0444 |
| GCATCGAC | -0.122 |
| CACTATGA | 0.132 |
| CGGTCTAG | -0.241 |

Other studies, line by line
UNK zinc fingers 1-6, GST-SBP tag: RING finger protein unkempt homolog, zinc fingers 1-6, GST-SBP tag (UNK, Homo sapiens, UniProt Q9C0B0, residues 30-357)
UniProt Q9C0B0, sequence (30-357, looked up): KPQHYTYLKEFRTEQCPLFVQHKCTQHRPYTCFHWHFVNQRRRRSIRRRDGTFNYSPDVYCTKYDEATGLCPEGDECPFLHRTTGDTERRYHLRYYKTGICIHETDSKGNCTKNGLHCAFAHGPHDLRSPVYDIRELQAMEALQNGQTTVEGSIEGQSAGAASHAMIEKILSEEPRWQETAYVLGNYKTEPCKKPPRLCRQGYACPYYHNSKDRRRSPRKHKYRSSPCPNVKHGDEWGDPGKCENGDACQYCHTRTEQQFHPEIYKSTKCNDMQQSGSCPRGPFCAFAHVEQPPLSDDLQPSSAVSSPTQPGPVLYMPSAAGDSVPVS
| Molecule | target | assay | system | conditions | how to read | quantity | result |
| --- | --- | --- | --- | --- | --- | --- | --- |
| GGGAGUUCUACAGUCCGACGAUCGUGUUGGUACAGAGUGCUCUGUACCAGUGCUCAUCAUCCCUUCUUCAUACCAACGGUCCCCCGUUACCGGAAUUUAAUAUUUUUAAAAGUUUUACAUUGCUGUAUAUUCAAAGAUUUGUUCAACAGAGGAUUGAGCAUCA | RING finger protein unkempt homolog, zinc fingers 1-6, SBP tag (UNK, Homo sapiens, UniProt Q9C0B0, residues 30-357) | RNA Bind-n-Seq | RNA, in vitro | 100 nM, RNA with constant flanks, ends assumed | reference: input RNA pool, higher = stronger binding | bound/input enrichment | 0.245 ratio |
| PhoQ, residues 284 288 289 292 302 303 WVSSAF | PhoP, residues 12 14 15 18 19 LWHSL (Escherichia coli, UniProt P23836) | Sort-seq, measured: YFP reporter | E. coli | PhoQ-PhoP variant library, with: 10 µM Mg2+ | reference: high Mg2+ state, higher = stronger signaling | fold induction | 5.96 and 14.6 |
| GGGAGUUCUACAGUCCGACGAUCAGGUUUCAGAGCGCAGCCAUCGGUGCGCUGCAGGAGGCUAGCGAAGCGUACCUGGUGGGUCUGUUCGAAGAUACCAACCUGUGUGCCAUCCACGCUAAGAGAGUCACCAUCAUGCCCAAACAACAGAGGAUUGAGCAUCA | UNK zinc fingers 1-6, GST-SBP tag | RNA Bind-n-Seq | RNA, in vitro | not given, RNA with constant flanks, human and mouse sites, ends assumed | reference: input RNA pool, higher = stronger binding | bound/input enrichment | 0.122 ratio |
| GGGAGUUCUACAGUCCGACGAUCAAUGGCAAUGGGGGACCUGGUCCCUAUGUGGGGCAAGCUGGCACUGCUACCCUUCCUAGGAACUUCCACUACCCUCCUGAUGGUUAUAGUCGCCACUAUGAAGAUGGUUAUCCAGGUGGCCAACAGAGGAUUGAGCAUCA | UNK zinc fingers 1-6, GST-SBP tag | RNA Bind-n-Seq | RNA, in vitro | not given, RNA with constant flanks, human and mouse sites, ends assumed | reference: input RNA pool, higher = stronger binding | bound/input enrichment | 0.195 ratio |
| GGGAGUUCUACAGUCCGACGAUCUGCCAUUUGGUUCCAAGUAGGUGCAGGACAAAAUGGAACUGGGUUCUACAUGCUGGGUUGACUAGGUUACACAUUUUAGCCUAUGAAGUUAGUGGCCUAUAAAACUUAAUCCUUAACGUUCAACAGAGGAUUGAGCAUCA | UNK zinc fingers 1-6, GST-SBP tag | RNA Bind-n-Seq | RNA, in vitro | not given, RNA with constant flanks, human and mouse sites, ends assumed | reference: input RNA pool, higher = stronger binding | bound/input enrichment | 0.194 ratio |

Excerpt of the above (sample 1):
| Sequence | E-score |
| --- | --- |
| CGCTACAA | 0.0903 |
| CTGCGAGC | -0.0162 |
